# Results from different studies.
# Compare with care: the assays were run in different laboratories. “And” joins repeats or separate records; there may be more than shown. ± marks the error that the study gave.
# ache: Acetylcholinesterase (ache, Electrophorus electricus, UniProt O42275)
# UniProt Q5VWZ2, sequence (whole entry, looked up): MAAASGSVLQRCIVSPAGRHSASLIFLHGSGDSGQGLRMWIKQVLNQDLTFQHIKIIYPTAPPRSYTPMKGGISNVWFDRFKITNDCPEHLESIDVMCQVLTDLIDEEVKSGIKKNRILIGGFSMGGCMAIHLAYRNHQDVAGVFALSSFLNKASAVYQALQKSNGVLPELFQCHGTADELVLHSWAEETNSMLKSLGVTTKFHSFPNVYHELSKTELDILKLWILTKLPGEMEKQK
# UniProt A5GZW8, sequence (whole entry, looked up): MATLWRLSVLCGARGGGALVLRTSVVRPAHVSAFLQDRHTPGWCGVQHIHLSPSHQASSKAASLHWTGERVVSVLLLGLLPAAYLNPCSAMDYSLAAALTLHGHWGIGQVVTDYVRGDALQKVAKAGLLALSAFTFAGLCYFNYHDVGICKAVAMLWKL
# UniProt Q007T0, sequence (whole entry, looked up): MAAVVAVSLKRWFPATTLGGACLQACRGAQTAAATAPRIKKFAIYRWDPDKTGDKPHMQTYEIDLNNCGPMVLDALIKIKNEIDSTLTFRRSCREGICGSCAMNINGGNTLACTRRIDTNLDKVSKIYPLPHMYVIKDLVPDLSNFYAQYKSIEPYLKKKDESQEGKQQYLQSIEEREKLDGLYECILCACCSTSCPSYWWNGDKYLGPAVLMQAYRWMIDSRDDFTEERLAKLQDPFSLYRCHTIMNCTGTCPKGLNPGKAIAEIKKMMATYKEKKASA
# UniProt Q62351, sequence (whole entry, looked up): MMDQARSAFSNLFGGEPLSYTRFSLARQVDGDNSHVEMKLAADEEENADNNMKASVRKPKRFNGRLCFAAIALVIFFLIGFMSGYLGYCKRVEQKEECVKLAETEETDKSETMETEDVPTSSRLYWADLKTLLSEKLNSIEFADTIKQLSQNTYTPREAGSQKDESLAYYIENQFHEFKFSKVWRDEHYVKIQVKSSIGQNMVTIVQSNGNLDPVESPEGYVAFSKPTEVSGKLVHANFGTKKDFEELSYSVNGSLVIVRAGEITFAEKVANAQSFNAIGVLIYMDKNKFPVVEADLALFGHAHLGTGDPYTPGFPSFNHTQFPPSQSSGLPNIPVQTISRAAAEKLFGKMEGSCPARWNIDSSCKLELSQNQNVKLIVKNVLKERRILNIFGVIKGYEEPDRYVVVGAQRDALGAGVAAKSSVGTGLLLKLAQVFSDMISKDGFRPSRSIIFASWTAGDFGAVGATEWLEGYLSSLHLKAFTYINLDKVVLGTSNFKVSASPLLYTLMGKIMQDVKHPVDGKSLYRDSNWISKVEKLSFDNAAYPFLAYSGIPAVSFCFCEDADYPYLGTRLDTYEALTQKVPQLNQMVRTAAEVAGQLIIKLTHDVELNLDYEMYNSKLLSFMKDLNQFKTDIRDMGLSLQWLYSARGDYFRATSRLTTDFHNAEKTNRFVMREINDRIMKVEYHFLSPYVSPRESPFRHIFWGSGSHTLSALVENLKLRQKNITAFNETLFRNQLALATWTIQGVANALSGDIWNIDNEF
# UniProt O42275, sequence (whole entry, looked up): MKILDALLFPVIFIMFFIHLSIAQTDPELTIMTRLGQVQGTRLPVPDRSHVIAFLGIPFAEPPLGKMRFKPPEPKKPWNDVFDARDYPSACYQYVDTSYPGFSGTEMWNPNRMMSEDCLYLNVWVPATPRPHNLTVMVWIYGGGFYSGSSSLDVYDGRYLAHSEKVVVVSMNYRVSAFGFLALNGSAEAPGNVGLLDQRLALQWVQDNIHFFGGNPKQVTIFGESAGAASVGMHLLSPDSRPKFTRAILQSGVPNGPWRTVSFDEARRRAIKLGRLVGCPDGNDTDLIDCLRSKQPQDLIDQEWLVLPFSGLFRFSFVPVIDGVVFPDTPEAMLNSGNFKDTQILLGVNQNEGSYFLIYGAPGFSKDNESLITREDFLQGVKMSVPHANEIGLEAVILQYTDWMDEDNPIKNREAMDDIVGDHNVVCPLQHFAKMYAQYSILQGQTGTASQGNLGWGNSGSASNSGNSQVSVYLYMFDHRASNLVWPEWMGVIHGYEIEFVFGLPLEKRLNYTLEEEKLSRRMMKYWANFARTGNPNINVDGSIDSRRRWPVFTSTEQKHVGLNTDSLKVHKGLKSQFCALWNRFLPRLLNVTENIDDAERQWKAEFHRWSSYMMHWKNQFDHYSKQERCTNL
# UniProt P03372, sequence (whole entry, unmodified, looked up): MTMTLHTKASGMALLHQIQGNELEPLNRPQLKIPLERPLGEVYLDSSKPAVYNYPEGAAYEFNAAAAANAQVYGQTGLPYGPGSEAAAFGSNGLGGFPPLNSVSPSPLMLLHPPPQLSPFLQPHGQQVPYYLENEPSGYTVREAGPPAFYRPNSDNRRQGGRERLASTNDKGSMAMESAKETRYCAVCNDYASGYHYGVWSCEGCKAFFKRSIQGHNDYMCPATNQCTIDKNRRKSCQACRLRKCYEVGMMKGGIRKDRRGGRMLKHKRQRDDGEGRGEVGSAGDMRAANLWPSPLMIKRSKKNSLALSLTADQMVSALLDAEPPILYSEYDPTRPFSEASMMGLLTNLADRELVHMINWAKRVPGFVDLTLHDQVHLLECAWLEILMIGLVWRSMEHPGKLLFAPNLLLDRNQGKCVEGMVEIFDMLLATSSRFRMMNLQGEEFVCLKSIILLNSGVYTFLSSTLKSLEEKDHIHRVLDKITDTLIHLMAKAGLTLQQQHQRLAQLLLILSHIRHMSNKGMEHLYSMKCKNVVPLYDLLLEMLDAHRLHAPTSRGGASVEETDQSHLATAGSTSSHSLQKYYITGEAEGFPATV
# UniProt D0VWV4, sequence (whole entry, looked up): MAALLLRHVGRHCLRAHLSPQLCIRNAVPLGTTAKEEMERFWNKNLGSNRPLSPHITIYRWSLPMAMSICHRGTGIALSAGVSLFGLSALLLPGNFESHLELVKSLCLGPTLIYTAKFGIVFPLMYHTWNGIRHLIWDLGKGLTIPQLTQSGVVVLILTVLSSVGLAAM
# UniProt Q9JLB5, sequence (whole entry, looked up): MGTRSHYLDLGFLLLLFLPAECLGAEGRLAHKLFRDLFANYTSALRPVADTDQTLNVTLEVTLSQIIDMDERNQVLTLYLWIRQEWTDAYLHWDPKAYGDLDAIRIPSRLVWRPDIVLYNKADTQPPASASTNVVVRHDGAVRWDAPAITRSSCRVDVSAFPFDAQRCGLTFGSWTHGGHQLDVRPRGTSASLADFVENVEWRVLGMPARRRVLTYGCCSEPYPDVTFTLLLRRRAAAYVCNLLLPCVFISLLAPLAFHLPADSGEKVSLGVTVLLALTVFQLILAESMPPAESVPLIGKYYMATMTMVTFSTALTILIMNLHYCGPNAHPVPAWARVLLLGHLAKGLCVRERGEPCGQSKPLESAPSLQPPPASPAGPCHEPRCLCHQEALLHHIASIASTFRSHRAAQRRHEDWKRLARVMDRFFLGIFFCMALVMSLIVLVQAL
# UniProt P00940, sequence (whole entry, unmodified, looked up): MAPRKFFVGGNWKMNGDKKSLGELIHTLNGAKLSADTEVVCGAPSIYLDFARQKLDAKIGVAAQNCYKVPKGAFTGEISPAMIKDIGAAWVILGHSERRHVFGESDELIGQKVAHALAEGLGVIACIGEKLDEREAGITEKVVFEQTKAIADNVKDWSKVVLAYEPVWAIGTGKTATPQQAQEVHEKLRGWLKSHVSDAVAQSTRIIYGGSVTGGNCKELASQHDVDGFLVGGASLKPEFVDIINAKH
# UniProt Q9UGM1, sequence (whole entry, looked up): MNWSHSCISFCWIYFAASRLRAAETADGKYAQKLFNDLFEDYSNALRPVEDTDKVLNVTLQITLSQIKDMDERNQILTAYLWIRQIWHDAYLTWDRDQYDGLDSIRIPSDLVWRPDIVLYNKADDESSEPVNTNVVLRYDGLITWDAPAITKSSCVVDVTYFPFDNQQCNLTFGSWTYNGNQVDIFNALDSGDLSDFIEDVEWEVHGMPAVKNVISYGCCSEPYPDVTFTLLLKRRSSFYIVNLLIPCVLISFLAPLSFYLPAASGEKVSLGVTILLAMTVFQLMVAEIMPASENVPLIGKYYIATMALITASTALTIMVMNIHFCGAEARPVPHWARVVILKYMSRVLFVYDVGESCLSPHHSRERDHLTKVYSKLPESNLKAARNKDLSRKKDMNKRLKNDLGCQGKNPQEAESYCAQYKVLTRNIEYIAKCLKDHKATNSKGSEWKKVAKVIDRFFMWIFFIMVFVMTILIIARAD
# UniProt P43144, sequence (whole entry, looked up): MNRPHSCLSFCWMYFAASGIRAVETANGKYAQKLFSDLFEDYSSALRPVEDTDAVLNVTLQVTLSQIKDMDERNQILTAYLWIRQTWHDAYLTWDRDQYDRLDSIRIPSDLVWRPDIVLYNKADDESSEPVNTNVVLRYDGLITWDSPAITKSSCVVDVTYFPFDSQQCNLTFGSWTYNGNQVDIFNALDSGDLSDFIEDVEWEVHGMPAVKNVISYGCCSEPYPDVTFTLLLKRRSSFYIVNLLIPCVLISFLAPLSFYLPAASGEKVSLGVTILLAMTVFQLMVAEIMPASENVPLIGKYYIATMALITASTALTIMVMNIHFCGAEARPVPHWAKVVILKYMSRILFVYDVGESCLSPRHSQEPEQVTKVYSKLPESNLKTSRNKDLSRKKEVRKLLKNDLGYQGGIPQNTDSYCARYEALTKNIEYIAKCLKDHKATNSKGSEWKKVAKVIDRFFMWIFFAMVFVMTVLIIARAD
# UniProt P30518, sequence (whole entry, looked up): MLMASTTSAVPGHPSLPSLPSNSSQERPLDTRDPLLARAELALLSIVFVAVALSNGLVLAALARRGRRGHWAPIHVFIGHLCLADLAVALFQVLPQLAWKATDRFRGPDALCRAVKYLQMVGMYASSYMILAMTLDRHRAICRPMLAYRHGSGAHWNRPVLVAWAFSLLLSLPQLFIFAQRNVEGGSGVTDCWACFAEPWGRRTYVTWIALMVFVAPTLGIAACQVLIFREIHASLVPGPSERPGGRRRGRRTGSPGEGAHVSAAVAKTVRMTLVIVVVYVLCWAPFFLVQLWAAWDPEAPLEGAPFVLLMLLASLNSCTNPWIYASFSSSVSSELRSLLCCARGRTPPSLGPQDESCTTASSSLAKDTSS
SMILES,tested on,test,system,conditions,scale,quantity,value
O=c1c2ccccc2oc2cc(OCCCCc3ccccc3)ccc12,ache,enzyme activity,,"0.36 µM, together with: substrate 0.43 mM",higher = faster reaction,reaction velocity,0.0006 a.u.
Cc1nn(C)cc1-c1nc2c(N3CCN(Cc4ccc(Cl)cc4)CC3)c(Cl)cnc2[nH]1,"Cyclin-dependent kinase-like 5 (CDKL5, Homo sapiens, UniProt O76039)",KINOMEscan,,1 µM,relative to: DMSO control,remaining binding,99%
O=c1cc(CSc2ccc(N=Cc3ccccc3)cc2)occ1O,"PPO3 (Agaricus bisporus, UniProt C7FF04)",fluorescence quenching,,concentration not given,,binding sites number,1.25
CC/C=C\C/C=C\C/C=C\C/C=C\C/C=C\CCCC(=O)O,"Bifunctional cytochrome P450/NADPH--P450 reductase (cyp102A1, Bacillus megaterium, UniProt P14779)","NADPH consumption, substrate",,100 µM,,kcat,5.49 ± 0.18 µmol/min/nmol
CC(C)(COP(=O)(O)O)[C@@H](O)C(=O)NCCC(=O)NS(=O)(=O)OC[C@H]1O[C@@H](n2ccc(N)nc2=O)[C@H](O)[C@@H]1O,phosphopantothenoylcysteine synthetase,enzyme activity,,,relative to: IC50 human over bacterial,selectivity ratio,20 to 740 fold
O=C(CF)NC1C(O)CC(OC2C(O)C(CO)OC(Oc3ccc([N+](=O)[O-])cc3)C2O)(C(=O)O)OC1C(O)C(O)CO (stereo not drawn),"Sialidase-2 (Homo sapiens, UniProt Q9Y3R4)",substrate,,"10 min, pH 5.0, 37 °C",,Vmax,0.00061 ± 3e-05 mM/s
CN[C@H]1CN(c2ccc3c(=O)c(C(=O)O)cn(-c4nccs4)c3n2)C[C@@H]1OC,human coronavirus OC43,virus-induced cell killing,MRC-5,maximum over 10 doses,,maximum inhibition,0%
CC#C[C@]1(O)CC[C@H]2[C@@H]3CCC4=CC(=O)CCC4=C3[C@@H](c3ccc(N(C)C)cc3)C[C@@]21C,"Protein cereblon (CRBN, Homo sapiens, UniProt Q96SW2)","binding, affinity selection mass spectrometry",,"100 nM, pooled screen",relative to: other proteins,fold change,12.2
C[C@H]1CN(c2n[nH]c3nc(N[C@H]4CC[C@H](NS(=O)(=O)CCC(F)(F)F)CC4)ncc23)CCO1,"Protein Aster-A (Homo sapiens, UniProt Q96CP6)","Kinobeads competition, refers to: GRAMD1A",,"0.032 µM, unit not given",relative to: vehicle,remaining binding,1.5
O=C(NNC(=O)c1csnn1)c1ccc(Cl)cc1,"Acetyl-CoA synthetase (Cryptococcus neoformans, UniProt J9VFT1)",,,3.13 µM,,remaining activity,41.4%
COc1cc(N)c(Cl)cc1C(=O)NC1CN2CCC1CC2 (stereo not drawn),"G-protein coupled receptor 146 (GPR146, Homo sapiens, UniProt Q96CH1)","β-arrestin recruitment, TANGO luminescence, refers to: GPR146",,concentration not given,relative to: basal luminescence,log2 fold change,1.14
COc1cc(Nc2ncc(F)c(Nc3ccc4c(n3)NC(=O)C(C)(C)O4)n2)cc(OC)c1OC,"Serine/threonine-protein kinase pim-1 (PIM1, Homo sapiens, UniProt P11309)",KINOMEscan,,10 µM,,inhibition,24%
CN(C(=O)n1cnc(-c2ccc[n+]([O-])c2)c1)C1CCCCC1,"Tyrosine-protein kinase ZAP-70 (ZAP70, Homo sapiens, UniProt P43403)",kinase activity,,"10 µM, together with: poly(Glu,Tyr)",,inhibition,8%
Nc1ncc(-c2nc(N3CCOCC3)nc(N3CCOCC3)n2)c(C(F)F)n1,Kv potassium channel,"radioligand binding, antagonist ligand",,10 µM,relative to: control,remaining binding,109%
CC(C)[C@@H](O)CC[C@@H](C)[C@H]1CC[C@H]2[C@@H]3CC=C4C[C@@H](O)CC[C@]4(C)[C@H]3CC[C@]12C,"Glutamate NMDA receptor; GRIN1/GRIN2B (GRIN1/GRIN2B, Homo sapiens, UniProt Q05586+Q13224, A652C)",two-electrode voltage clamp,Xenopus oocytes,"concentration not given, with PAM, from MTSEA potentiation, together with: MTSEA",,open probability,0.07 ± 0.005
CN(C)CCOc1ccc(/C(=C(/CCCl)c2ccccc2)c2ccccc2)cc1,human coronavirus OC43,virus-induced cell killing,MRC-5,screen,,maximum inhibition,35.2%
Clc1ccc(-c2ccccc2Cl)cc1,"Estrogen receptor (ESR1, Homo sapiens, UniProt P03372)","reporter gene, agonist",T47D.luc,24 h,relative to: estradiol,EC25,10 µM
CN1CCN(c2cc(-c3ccncc3)c(-c3ccc4ccccc4c3)nn2)CC1,"Neuromedin-K receptor (TACR3, Homo sapiens, UniProt P29371)","antagonist, FLIPR",,10 µM,,inhibition,-15.7%
Nc1ncnc2c1ncn2[C@@H]1O[C@H](COP(=O)(O)OP(=O)(O)O)[C@@H](O)[C@H]1O,"Cell cycle histidine kinase CckA, R374A; cytoplasmic region (Caulobacter vibrioides, UniProt Q9X688, R374A)",isothermal titration calorimetry,Caulobacter crescentus,"concentration not given, 25 °C, together with: without c-di-GMP",,binding enthalpy (ΔH),-2.2 kcal/mol
CCOC(=O)CC(SP(=O)(OC)OC)C(=O)OCC (stereo not drawn),"uncharacterized protein (Anopheles coluzzii, UniProt A0A6E8VQK1)","enzyme activity, inhibitor",Sf9 cell homogenate,"0.1147 µM, 0.1667 h, together with: α-naphthyl acetate substrate",relative to: no inhibitor,remaining activity,81.3%
CC1(C)C=C(CNc2ccc3c(c2)Cc2cc(Br)ccc2-3)C(C)(C)N1[O],"Amyloid-beta precursor protein, amyloid-beta (APP, Homo sapiens, UniProt P05067)","MRI, MSME","5xFAD mice, brain","iv, 3 mg/kg, 24 h",,T2 relaxation time,28 ms
C[N+]1(C)CCN(c2ccccc2)CC1,"Neuronal acetylcholine receptor subunit alpha-9 (CHRNA9, Homo sapiens, UniProt Q9UGM1)","peak current, agonist, two-electrode voltage clamp",Xenopus oocytes coexpressing rapsyn,30 µM,relative to: ACh 60 µM,response relative to ACh,< 5%
O=C(O)COP(=O)(O)O,"Triosephosphate isomerase (TPI1, Gallus gallus, UniProt P00940, G210A/S211G/Y208T)","enzyme activity, competitive inhibitor, GPDH/NADH-coupled",,"pH 7.0, 25 °C, ionic strength 0.1 NaCl, together with: glyceraldehyde 3-phosphate substrate",relative to: mutant over wild type,Ki ratio,370
O=C(Nc1cnccc1Cl)N1CCN(Cc2ccc3c(c2)OC(F)(F)O3)CC1,"Vasopressin V2 receptor (AVPR2, Homo sapiens, UniProt P30518)",binding,,"50 µM, together with: [3H][Arg8]vasopressin",,inhibition,-1%
C=C(CN(C(=O)c1c(C(F)F)nn(C)c1F)C1CC1)c1ccc(Cl)cc1Cl,"SDHD/SDHC/SDHB (Sus scrofa, UniProt A5GZW8+D0VWV4+Q007T0)","enzyme activity, inhibitor, DCIP reduction",pig,"0.4 µM, together with: DCIP 10 µM",,reaction velocity,0.00173 µM/s and 0.00197 µM/s
O=C(c1ccc(Cl)cc1)N1CCN2C(=O)N(OC(=O)N3CCOc4ccccc43)C(=O)C2C1 (stereo not drawn),"Lysophospholipase-like protein 1 (LYPLAL1, Homo sapiens, UniProt Q5VWZ2)",MS-based ABPP,SW-620 conditioned medium,"10 µM, 1 h, 37 °C","relative to: compound over DMSO, lower = more inhibition",peptide ratio,1.1 and 1.03 and 1.05 and 1
O=C(O)C(/C=C/c1c(Cl)cccc1Cl)=N\Nc1nc(-c2ccc(F)cc2)cs1,ache,Ellman,,,relative to: IC50 BChE over IC50 AChE,selectivity index,13.5
C#CCCCCCCCCC(=O)Nc1ccc(-n2nc(OC)oc2=O)cc1,"Uncharacterized hydrolase SAUSA300_2518 (Staphylococcus aureus, UniProt Q2FDS6)","covalent labelling, mass spectrometry",Staphylococcus aureus USA300,"200 µM, 4 h, room temperature",,mass increase,371 Da
CN1C(=O)CC[C@H](N2Cc3c(ccc4c3OCC43CCN(C[C@@H]4CCC5(CCN(c6ccc([C@@H]7c8ccc(O)cc8CC[C@@H]7c7ccccc7)cc6)CC5)OC4)CC3)C2=O)C1=O,"Estrogen receptor (ESR1, Homo sapiens, UniProt P03372, D538G)","degrader, Western blot",MCF7 (ESR1 D538G),"10 and 100 nM, 7 h",,ER protein level,no effect
COc1ccc2[nH]c3c(c2c1)CCN(C)CC3.Cl,"Nicotinic acetylcholine receptor alpha9/alpha10 (Rattus norvegicus, UniProt P43144+Q9JLB5)","ion current, inhibitor, two-electrode voltage clamp","Xenopus laevis oocytes, rat",together with: 100 µM acetylcholine,,Hill coefficient,1.6 ± 0.1
CC[C@@H](C)[C@@H](NC(=O)[C@@H](Cc1ccc(O)cc1)NC(=O)[C@H]1CCCN1C(=O)[C@@H](CCCNC(=N)N)NC(=O)[C@H](N)Cc1c[nH]cn1)C(=O)N[C@H](C)C(=O)N[C@H](Cc1c[nH]cn1)C(=O)N[C@H](CCCNC(=N)N)C(=O)N[C@H](CCCCNC(=O)c1cccc(S(=O)(=O)F)c1)C(=O)N[C@H](Cc1ccc(O)cc1)C(=O)N[C@H](CO)C(=O)N[C@H](Cc1ccccc1)C(N)=O,"Transferrin receptor protein 1 (Tfrc, Mus musculus, UniProt Q62351)",flow cytometry,MC-38,"24 h, unit not given",relative to: 0 h,surface expression,0.912 and 0.914
Oc1cc(Br)cc(Br)c1Oc1ccc(Br)cc1Br,"Sulfotransferase 1E1 (SULT1E1, Homo sapiens, UniProt P49888)","sulfonation, substrate",,,,Vmax/Km,137 µL/min/mg
O=C(Nc1cccnn1)N1CCC(=Cc2cccc(Oc3ccc(C(F)(F)F)cn3)c2)CC1,"Mu-type opioid receptor (OPRM1, Homo sapiens, UniProt P35372)","radioligand binding, inhibitor",,"50 µM, human, together with: [3H]diprenorphine",,inhibition,68%
Cc1cn([C@H]2C[C@H](O)[C@@H](COP(=O)(O)Oc3ccc([N+](=O)[O-])cc3)O2)c(=O)[nH]c1=O,"Autotaxin (ENPP2, Homo sapiens, UniProt Q13822)","phosphodiesterase activity, substrate",,,,Km,1400 ± 100 µM
[2H]c1c([2H])c([C@]2([2H])CCCN2C(=O)C(C)(C)Oc2ccc3cn[nH]c3c2)c([2H])c([2H])c1C([2H])([2H])[2H],"Cyclin-dependent kinase 3 (CDK3, Homo sapiens, UniProt Q00526)",KINOMEscan,,1 µM,relative to: DMSO control,remaining binding,78%
Nc1ccc(O)c(C(=O)O)c1,"ppk (Escherichia coli, UniProt P0A7B1, D230N)",inhibitor,,1 mM,relative to: DMSO,polyphosphate synthesis,inhibited
COCC1OC2CC(CC(N)C(=O)O)(C(=O)O)OC2C(O)C1O (stereo not drawn),"Glutamate receptor ionotropic, kainate 1 (Rattus norvegicus, UniProt P22756, del402-416)","ion current, agonist, whole-cell patch-clamp",HEK-293T/17,10 µM,relative to: 10 mM glutamate,current amplitude,~25%
CCN(CC)CCCC[C@H](NC(=O)[C@H](CC(C)C)NC(=O)[C@H](C)NC(=O)[C@H](Cc1ccccc1)NC(=O)c1ccc(C(C)(C)C)cc1)C(=O)N[C@@H](CO)C(=O)OC,"Protein polybromo-1, BD4 (PBRM1, Homo sapiens, UniProt Q86U86)","thermal stabilisation, thermal shift",,25 µM,"relative to: protein without compound, higher = stronger binding",delta Tm,0.56 °C
O=C(Nc1ccc2c(c1)B(O)OC2)c1ccc(C(F)(F)F)cc1,"Genome polyprotein, NS2B-NS3 protease (dengue virus type 2, UniProt P29990)","enzyme activity, FRET",dengue virus serotype 2,"50 µM, together with: substrate 50 µM",,inhibition,26 ± 7%
O=C(CCc1ccccc1)N[C@H]1CCOC1=O,"Regulatory protein SdiA (sdiA, Escherichia coli, UniProt P07026)",,,,,Emax,82.1%
CC[C@H](C)[C@H](NC(=O)[C@H](CCC(N)=O)NC(=O)[C@@H](NC(=O)[C@@H]1CCCN1C(=O)[C@@H](NC(=O)[C@H](CO)NC(=O)[C@H](Cc1ccccc1)NC(=O)[C@@H]1CCCN1C(=O)[C@H](CCC(N)=O)NC(=O)[C@@H](N)CCSC)[C@@H](C)CC)C(C)C)C(=O)N[C@H](C(=O)N[C@@H](CC(C)C)C(=O)N[C@@H](CCC(N)=O)C(=O)NCC(=O)N[C@@H](CO)C(=O)N[C@@H](CCCNC(=N)N)C(=O)N[C@@H](CCCNC(=N)N)C(=O)N[C@@H](CCCNC(=N)N)C(=O)N[C@@H](CCC(N)=O)C(=O)NCC(=O)N[C@@H](CCCNC(=N)N)C(N)=O)[C@@H](C)O,"Kcnma1 (Mus musculus, UniProt Q08460)","ion current, blocker, inside-out patch clamp",Xenopus oocytes,"+100 mV, together with: 10 µM cytosolic Ca2+",,Hill coefficient,1.34
COc1ccc(N2C(=O)N(c3c(C)cccc3Cl)Cc3cnc(Nc4ccc(C5CCN(C)CC5)cc4OC)nc32)nc1,"Serine/threonine-protein kinase PAK 3 (PAK3, Homo sapiens, UniProt O75914)",kinase activity,,0.5 µM,,inhibition,7%

# A few entries again:
SMILES,tested on,test,system,conditions,scale,quantity,value
Cc1cn([C@H]2C[C@H](O)[C@@H](COP(=O)(O)Oc3ccc([N+](=O)[O-])cc3)O2)c(=O)[nH]c1=O,"Autotaxin (ENPP2, Homo sapiens, UniProt Q13822)","phosphodiesterase activity, substrate",,,,Km,1400 ± 100 µM
[2H]c1c([2H])c([C@]2([2H])CCCN2C(=O)C(C)(C)Oc2ccc3cn[nH]c3c2)c([2H])c([2H])c1C([2H])([2H])[2H],"Cyclin-dependent kinase 3 (CDK3, Homo sapiens, UniProt Q00526)",KINOMEscan,,1 µM,relative to: DMSO control,remaining binding,78%
